Measurements of several laboratories.
Parts stem from different laboratories: compare values within a part only.
Sequence of UniProt P11362 (whole entry, looked up): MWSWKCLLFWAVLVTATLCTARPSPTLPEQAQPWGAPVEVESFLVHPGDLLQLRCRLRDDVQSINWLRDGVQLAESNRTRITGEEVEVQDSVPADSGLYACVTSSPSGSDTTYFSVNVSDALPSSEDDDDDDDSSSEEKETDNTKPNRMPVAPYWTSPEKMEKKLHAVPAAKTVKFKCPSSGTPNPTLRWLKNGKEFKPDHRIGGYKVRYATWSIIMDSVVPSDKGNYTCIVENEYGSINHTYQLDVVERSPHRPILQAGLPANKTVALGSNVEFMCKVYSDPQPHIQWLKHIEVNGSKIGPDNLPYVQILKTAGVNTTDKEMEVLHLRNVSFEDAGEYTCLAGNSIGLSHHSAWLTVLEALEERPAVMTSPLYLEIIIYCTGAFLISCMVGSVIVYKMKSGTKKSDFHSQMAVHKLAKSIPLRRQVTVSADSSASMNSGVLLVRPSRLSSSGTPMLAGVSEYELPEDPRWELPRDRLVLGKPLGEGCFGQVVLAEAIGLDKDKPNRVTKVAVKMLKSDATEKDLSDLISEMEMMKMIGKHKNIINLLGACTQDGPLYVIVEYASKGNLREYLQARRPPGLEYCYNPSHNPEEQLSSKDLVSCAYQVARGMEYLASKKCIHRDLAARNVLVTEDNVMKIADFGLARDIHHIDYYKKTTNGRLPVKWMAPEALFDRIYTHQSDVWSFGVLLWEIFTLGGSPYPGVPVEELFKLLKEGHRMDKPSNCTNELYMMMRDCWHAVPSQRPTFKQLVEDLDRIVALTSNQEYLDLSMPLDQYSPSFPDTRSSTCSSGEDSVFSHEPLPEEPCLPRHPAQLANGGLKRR
Sequence of UniProt P30291 (whole entry, looked up): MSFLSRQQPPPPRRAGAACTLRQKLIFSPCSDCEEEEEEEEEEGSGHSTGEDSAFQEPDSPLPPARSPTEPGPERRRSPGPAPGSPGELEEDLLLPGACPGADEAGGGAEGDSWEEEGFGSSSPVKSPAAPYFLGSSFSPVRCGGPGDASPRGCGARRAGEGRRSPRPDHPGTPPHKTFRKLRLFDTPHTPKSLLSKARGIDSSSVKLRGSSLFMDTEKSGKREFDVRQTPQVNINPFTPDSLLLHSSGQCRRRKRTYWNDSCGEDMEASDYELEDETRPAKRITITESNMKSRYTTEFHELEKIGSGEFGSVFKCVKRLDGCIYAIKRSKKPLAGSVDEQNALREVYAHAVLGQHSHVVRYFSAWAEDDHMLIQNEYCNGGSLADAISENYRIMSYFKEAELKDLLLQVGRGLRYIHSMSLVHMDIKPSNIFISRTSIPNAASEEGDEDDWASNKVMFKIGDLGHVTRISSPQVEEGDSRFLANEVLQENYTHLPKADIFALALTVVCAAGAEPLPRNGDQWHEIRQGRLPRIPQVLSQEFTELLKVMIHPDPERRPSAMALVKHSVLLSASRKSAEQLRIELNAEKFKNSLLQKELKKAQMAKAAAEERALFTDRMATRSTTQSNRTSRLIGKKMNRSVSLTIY
Sequence of UniProt Q12866 (whole entry, looked up): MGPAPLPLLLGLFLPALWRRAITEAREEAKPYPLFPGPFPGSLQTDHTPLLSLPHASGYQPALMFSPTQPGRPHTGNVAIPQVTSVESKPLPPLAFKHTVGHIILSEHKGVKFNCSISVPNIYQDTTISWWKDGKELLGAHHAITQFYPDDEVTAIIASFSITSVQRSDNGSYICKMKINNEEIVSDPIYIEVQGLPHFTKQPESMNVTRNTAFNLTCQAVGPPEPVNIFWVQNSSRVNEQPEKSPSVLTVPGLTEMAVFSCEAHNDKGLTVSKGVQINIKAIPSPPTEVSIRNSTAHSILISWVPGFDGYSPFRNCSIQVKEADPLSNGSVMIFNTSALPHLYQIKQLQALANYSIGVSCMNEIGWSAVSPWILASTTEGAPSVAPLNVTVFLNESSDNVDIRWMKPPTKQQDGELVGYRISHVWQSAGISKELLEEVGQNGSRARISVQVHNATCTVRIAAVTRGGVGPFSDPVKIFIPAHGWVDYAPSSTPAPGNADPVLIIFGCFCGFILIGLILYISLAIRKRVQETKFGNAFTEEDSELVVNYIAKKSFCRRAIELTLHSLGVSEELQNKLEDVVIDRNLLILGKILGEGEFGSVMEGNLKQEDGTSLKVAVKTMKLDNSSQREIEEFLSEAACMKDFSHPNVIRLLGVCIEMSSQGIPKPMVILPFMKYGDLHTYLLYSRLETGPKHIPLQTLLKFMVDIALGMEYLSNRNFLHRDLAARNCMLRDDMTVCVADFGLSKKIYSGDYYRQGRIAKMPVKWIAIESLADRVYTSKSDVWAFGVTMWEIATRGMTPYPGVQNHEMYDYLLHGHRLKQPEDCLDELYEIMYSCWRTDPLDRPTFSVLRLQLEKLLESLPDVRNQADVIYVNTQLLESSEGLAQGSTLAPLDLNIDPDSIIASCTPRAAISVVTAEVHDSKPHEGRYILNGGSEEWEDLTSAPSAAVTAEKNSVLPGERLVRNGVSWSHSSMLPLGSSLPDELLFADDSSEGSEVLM
Sequence of UniProt Q9UL54 (whole entry, looked up): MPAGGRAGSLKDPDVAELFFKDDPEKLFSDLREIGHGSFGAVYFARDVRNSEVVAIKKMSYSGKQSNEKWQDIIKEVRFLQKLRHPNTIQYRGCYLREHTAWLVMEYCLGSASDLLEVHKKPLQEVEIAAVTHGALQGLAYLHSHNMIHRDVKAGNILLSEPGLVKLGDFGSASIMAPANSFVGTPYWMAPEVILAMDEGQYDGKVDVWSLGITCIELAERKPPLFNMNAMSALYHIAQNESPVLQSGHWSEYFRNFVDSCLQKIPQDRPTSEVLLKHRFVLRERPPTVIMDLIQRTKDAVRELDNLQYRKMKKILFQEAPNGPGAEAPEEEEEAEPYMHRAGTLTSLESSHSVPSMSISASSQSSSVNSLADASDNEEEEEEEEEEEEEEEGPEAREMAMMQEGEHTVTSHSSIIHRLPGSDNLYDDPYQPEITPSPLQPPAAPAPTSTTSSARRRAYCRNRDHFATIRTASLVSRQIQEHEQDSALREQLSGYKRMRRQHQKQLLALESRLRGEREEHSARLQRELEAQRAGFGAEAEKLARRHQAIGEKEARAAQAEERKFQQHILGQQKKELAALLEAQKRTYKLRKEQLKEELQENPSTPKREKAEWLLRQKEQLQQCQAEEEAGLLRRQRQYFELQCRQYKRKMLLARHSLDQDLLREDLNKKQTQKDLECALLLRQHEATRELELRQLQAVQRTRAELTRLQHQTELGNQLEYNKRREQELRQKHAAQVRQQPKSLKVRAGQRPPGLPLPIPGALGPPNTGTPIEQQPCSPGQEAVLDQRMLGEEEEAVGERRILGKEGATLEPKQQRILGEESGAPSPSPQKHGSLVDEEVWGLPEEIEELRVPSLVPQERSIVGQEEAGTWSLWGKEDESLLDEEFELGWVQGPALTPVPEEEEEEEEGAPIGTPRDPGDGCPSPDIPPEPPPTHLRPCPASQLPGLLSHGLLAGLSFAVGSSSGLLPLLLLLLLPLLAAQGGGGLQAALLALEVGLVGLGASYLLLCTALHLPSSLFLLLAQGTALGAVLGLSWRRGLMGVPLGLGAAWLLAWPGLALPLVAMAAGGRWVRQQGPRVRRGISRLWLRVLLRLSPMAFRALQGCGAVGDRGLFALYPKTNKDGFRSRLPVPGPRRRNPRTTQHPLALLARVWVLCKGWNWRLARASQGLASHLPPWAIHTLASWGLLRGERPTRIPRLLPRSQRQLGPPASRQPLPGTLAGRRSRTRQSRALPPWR
Sequence of UniProt P31152 (whole entry, looked up): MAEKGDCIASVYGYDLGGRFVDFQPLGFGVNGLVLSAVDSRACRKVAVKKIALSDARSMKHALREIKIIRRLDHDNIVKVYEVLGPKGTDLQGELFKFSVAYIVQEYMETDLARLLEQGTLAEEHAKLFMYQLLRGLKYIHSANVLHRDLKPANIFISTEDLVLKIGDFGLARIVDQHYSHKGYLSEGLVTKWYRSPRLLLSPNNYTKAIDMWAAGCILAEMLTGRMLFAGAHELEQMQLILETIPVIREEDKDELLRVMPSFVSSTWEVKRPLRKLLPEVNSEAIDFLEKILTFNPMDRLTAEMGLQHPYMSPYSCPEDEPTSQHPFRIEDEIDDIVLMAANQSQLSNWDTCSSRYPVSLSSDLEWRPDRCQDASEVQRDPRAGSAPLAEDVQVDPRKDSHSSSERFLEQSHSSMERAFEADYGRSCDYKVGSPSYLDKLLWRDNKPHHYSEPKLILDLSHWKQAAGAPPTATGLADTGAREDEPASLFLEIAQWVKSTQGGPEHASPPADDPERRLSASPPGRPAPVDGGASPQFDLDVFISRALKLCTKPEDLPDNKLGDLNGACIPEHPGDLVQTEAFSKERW
Sequence of UniProt P49841 (whole entry, looked up): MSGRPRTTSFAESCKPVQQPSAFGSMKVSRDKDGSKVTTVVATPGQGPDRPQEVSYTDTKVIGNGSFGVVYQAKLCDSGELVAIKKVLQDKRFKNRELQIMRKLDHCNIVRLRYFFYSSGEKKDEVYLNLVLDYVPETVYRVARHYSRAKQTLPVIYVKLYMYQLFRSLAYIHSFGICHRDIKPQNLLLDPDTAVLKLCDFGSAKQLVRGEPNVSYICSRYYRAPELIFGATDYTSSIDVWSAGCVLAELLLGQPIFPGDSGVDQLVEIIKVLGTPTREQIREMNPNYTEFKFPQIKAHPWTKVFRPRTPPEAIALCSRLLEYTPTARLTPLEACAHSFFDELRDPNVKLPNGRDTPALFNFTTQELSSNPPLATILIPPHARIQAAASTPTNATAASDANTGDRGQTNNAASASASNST

Block 1 — SMILES: CC(=O)c1ccc(N2CCOCC2)cc1O; observed: enzyme activity; action: inhibitor; concentration: 0.5 µM; relative to: control
target	remaining activity
Angiopoietin-1 receptor (TEK, Homo sapiens, UniProt Q02763)	101%
Tyrosine-protein kinase FRK (FRK, Homo sapiens, UniProt P42685)	91.6%
Fibroblast growth factor receptor 1 (FGFR1, Homo sapiens, UniProt P11362)	91.4%
Serine/threonine-protein kinase TAO2 (TAOK2, Homo sapiens, UniProt Q9UL54)	107%
Tyrosine-protein kinase Mer (MERTK, Homo sapiens, UniProt Q12866)	101%
Serine/threonine-protein kinase ULK2 (ULK2, Homo sapiens, UniProt Q8IYT8)	114%
Wee1-like protein kinase (WEE1, Homo sapiens, UniProt P30291)	97.5%
Serine/threonine-protein kinase Nek1 (NEK1, Homo sapiens, UniProt Q96PY6)	114%
Glycogen synthase kinase-3 beta (GSK3B, Homo sapiens, UniProt P49841)	122%
Mitogen-activated protein kinase kinase kinase 14 (MAP3K14, Homo sapiens, UniProt Q99558)	82.6%
Tyrosine-protein kinase JAK3 (JAK3, Homo sapiens, UniProt P52333)	104%
Rhodopsin kinase GRK7 (GRK7, Homo sapiens, UniProt Q8WTQ7)	100%
Mitogen-activated protein kinase 3 (MAPK3, Homo sapiens, UniProt P27361)	103%

Block 2 — method: competition with immobilised ligand; concentration: 1 µM
SMILES: CC1=C(C#N)[C@@H](c2ccc3[nH]nc(C)c3c2)C(C#N)=C(c2ccc(Cl)cc2)N1
target	observed	remaining binding [%]
Phosphatidylinositol 4-phosphate 5-kinase type-1 alpha (PIP5K1A, Homo sapiens, UniProt Q99755)	cell-free assay	100
Mitogen-activated protein kinase 4 (MAPK4, Homo sapiens, UniProt P31152)	cell-free assay	89.6
Serine/threonine-protein kinase MAK (MAK, Homo sapiens, UniProt P20794)	binding	85.1

Block 3 — method: universal PBM; form: double-stranded DNA, one strand shown; matrix: in vitro; concentration: not given; direction: higher = stronger binding
Target: Sal-like protein 4, full length isoform B (SALL4, Homo sapiens, UniProt Q9UJQ4-2, residues 1-616)
Setting: 8-mer, flanks averaged, mean of replicates
Sequence	E-score
GCGTGTCC	-0.274
CCAACCCC	-0.101
ACGTGGGA	-0.194
AGCAACCT	-0.163
ACAGAAAT	0.284
ACGAGAAT	0.136
ACAAAAAC	0.0971
CACATGAG	0.0442

Further values, each from its own experiment — method: nitrocellulose filter binding; form: RNA; matrix: in vitro; concentration: 100 nM; relative to: round 9 selected pool; direction: higher = stronger binding
Target: SMN1, full length (human, UniProt Q16637, residues 1-294)
Sequence of UniProt Q16637 (whole entry, looked up): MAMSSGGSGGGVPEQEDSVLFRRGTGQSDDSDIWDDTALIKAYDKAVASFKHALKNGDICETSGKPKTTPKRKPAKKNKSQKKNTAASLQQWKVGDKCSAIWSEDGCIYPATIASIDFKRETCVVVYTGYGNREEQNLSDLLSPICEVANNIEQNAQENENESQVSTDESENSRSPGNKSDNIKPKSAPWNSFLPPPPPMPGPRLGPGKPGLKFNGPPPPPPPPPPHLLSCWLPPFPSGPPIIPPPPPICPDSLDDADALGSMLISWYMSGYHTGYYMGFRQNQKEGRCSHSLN
Setting: whole RNA, constant flanks, single concentration, ends assumed
Sequence	relative RNA binding
GGGCUCACCACGCACCGUGCCGGCUUGUCCGUGUUUGGGGCCUCACCACGGCAAGCU	86 % of pool
GGGCUCACCACGCACUUGGCGCGGGCUUGUUAUGGAAUGGCCUCACCACGGCAAGCU	45 % of pool

Some of these lines once more (block 1):
target	remaining activity
Serine/threonine-protein kinase TAO2 (TAOK2, Homo sapiens, UniProt Q9UL54)	107%
Tyrosine-protein kinase Mer (MERTK, Homo sapiens, UniProt Q12866)	101%
Serine/threonine-protein kinase ULK2 (ULK2, Homo sapiens, UniProt Q8IYT8)	114%
Wee1-like protein kinase (WEE1, Homo sapiens, UniProt P30291)	97.5%
